Experimental data gathered from unrelated publications.
Parts stem from different laboratories: compare values within a part only.
UniProt P53350, sequence (whole entry, looked up): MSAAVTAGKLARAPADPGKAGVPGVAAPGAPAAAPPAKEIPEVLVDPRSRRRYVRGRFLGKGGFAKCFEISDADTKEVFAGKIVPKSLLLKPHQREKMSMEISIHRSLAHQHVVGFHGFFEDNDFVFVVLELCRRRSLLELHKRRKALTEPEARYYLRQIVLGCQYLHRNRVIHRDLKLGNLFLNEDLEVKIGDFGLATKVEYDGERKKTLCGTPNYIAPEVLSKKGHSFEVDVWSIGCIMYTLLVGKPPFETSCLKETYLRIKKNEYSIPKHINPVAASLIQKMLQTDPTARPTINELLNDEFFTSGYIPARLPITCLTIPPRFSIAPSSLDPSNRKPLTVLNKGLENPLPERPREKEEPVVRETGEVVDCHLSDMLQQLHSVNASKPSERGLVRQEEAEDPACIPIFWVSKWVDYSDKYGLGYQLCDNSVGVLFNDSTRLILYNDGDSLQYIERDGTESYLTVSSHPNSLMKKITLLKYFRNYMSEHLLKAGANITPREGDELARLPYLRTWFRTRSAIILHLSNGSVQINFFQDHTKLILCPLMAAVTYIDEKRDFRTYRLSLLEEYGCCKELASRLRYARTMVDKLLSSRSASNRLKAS

Block 1 — read-out: ligand displacement; tested at: 10 µM; measurement: inhibition
Target: D(1A) dopamine receptor (DRD1, Homo sapiens, UniProt P21728)
UniProt P21728, sequence (whole entry, looked up): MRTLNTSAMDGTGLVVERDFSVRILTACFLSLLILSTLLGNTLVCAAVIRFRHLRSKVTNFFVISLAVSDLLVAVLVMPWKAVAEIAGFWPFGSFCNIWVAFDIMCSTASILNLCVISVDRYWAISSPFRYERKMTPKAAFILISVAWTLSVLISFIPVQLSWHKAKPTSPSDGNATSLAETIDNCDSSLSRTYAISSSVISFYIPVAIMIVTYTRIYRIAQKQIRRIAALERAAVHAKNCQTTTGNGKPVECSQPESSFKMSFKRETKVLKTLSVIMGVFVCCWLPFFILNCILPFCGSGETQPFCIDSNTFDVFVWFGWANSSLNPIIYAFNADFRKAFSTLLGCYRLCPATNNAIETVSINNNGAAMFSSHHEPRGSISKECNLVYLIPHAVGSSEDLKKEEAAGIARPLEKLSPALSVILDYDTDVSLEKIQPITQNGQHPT
c1ccc(C2CCN(c3cnc4c(N5CCOCC5)nccn34)CC2)cc1: 10.6%
Nc1nc(NCc2ccccc2)nc(-c2cccc(CO)c2)n1: 3.99%
CN1CCN(c2cnc3c(C4CCN(C(=O)c5ccc(OC(F)(F)F)cc5N)CC4)ncnc3c2)CC1: -16.5%
CN([C@@H]1CCc2c(CC(=O)O)c3ccccc3n2C1)S(=O)(=O)c1ccc(F)cc1: 12.3%
CC(=O)Nc1ncc(CN2CCC[C@H](Cc3cc(C)nc(C)c3)C2)s1: -19.7%
CN(C)C(=O)c1sc2nc(N3CCC(S(C)(=O)=O)CC3)cc(C(F)(F)F)c2c1N: 1.22%
O=C(N[C@H]1CCCCC/C=C\C2C[C@@]2(C(=O)O)NC(=O)[C@@H]2C[C@@H](Oc3ccncc3)CN2C1=O)OC1CCCC1 (stereo partly shown): -4.18%
O=S(=O)(NC1CCC(c2cc(F)ccc2F)(S(=O)(=O)c2ccc(Cl)cc2)CC1)C(F)(F)F (stereo not shown): 17.4%

Block 2 — read-out: transporter uptake; mode: inhibitor; measurement: IC50
Target: Synaptic vesicular amine transporter (SLC18A2, Homo sapiens, UniProt Q05940)
UniProt Q05940, sequence (whole entry, looked up): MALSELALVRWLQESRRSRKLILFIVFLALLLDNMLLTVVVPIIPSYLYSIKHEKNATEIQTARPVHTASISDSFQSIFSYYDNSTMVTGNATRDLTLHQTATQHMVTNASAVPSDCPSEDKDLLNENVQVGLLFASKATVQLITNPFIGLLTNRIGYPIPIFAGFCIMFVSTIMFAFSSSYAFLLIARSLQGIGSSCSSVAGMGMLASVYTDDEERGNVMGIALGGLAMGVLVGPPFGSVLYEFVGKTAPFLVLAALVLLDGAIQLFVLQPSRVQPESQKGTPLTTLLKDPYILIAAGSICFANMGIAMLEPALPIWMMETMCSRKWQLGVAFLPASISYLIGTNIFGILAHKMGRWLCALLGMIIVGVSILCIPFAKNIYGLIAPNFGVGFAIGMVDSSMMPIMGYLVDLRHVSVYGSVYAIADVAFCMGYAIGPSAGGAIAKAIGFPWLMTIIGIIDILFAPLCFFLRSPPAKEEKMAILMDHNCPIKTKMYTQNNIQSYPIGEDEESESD
COc1cc2nc(N3CCN(C(=O)C4CCCO4)CC3)nc(N)c2cc1OC (stereo not shown): 0.313 µM
CSc1nc2cc(Cl)c(Oc3cccc(Cl)c3Cl)cc2[nH]1: 1.48 µM
Oc1ccc(CCNCCCCCCNCCc2ccccc2)cc1O: 0.041 µM
COc1cc(N)c(Cl)cc1C(=O)NC1CCN(CCCOc2ccc(F)cc2)CC1OC (stereo not shown): 7.06 µM
CN(C)CCC=C1c2ccccc2CCc2ccccc21: 9 µM
CN1CC2c3ccccc3Oc3ccc(Cl)cc3C2C1 (stereo not shown): 4.32 µM

Block 3 — read-out: enzyme activity; mode: inhibitor; tested at: 0.5 µM; reference: control; measurement: remaining activity
Target: Platelet-derived growth factor receptor alpha (PDGFRA, Homo sapiens, UniProt P16234)
UniProt P16234, sequence (whole entry, looked up): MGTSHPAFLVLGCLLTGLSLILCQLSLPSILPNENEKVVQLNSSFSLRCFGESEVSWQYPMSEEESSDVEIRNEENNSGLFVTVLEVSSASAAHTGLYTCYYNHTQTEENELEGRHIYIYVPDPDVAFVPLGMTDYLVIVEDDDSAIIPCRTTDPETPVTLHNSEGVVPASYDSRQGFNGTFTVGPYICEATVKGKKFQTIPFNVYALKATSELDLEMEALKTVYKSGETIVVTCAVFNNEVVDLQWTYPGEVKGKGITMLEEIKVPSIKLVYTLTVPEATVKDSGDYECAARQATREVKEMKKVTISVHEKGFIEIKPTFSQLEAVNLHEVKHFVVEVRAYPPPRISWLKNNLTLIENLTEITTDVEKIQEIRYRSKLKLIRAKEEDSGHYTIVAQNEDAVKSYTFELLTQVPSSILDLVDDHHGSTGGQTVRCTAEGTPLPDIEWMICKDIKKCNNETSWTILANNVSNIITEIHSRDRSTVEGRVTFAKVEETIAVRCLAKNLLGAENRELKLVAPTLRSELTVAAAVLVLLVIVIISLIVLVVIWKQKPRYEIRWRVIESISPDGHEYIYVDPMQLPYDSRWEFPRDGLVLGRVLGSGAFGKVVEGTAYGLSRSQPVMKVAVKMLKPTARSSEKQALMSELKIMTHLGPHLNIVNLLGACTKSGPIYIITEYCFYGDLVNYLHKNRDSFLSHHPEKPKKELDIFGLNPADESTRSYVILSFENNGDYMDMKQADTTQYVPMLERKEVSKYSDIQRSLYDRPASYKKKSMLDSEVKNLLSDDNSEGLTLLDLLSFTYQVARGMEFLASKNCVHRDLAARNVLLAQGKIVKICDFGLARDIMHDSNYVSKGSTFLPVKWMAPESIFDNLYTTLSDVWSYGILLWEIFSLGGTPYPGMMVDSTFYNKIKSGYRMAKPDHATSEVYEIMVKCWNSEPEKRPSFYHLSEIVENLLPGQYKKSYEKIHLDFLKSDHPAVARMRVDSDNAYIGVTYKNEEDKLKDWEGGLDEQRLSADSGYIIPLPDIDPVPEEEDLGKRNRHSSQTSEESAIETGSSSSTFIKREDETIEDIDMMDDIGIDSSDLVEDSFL
COc1cc2ncnc(Nc3cccc(Cl)c3)c2cc1OC: 93.3%
CN(C)C[C@H]1CCn2c(c(C3=C(c4cn(C)c5ccccc45)C(=O)NC3=O)c3ccccc32)C1: 93.1%
N#Cc1c(NC(=O)c2cccc3ccccc23)sc2c1CCCC2: 101%
CCN(CC)C(=O)c1ccc(Nc2nc(OCC3CCCCC3)c3[nH]cnc3n2)cc1: 66.6%
Ic1cccc(CSc2nnc(-c3ccncc3)o2)c1: 90.1%
Cn1nc2c3c(cccc31)C(=O)c1ccccc1-2: 97.6%
CCN(CC)CCNC(=O)c1c(C)[nH]c(/C=C2\C(=O)Nc3ccc(Cl)cc32)c1C: 25.9%
c1ccc(-c2[nH]ncc2-c2ccnc3ccccc23)nc1: 98.1%
CN([C@@H](Cc1ccc(OS(=O)(=O)c2cccc3cnccc23)cc1)C(=O)N1CCN(c2ccccc2)CC1)S(=O)(=O)c1cccc2cnccc12: 99.6%
Cc1cn(-c2cc(NC(=O)c3ccc(C)c(Nc4nccc(-c5cccnc5)n4)c3)cc(C(F)(F)F)c2)cn1: 18.1%
O=C1c2ccccc2-c2n[nH]c3cccc1c23: 101%
CCOc1nc(NC(=O)Cc2cc(OC)ccc2OC)cc(N)c1C#N: 97.1%
O=C1C(Cl)=C(N2C(=O)CCC2=O)C(=O)c2ccccc21: 109%

Other studies, line by line
COc1cc(C(=O)N2CCC(N3CCN(C)CC3)CC2)ccc1Nc1ncc2c(n1)N(C)c1ccccc1C(=O)N2C — concentration causing mitotic arrest (Serine/threonine-protein kinase PLK1 (PLK1, Homo sapiens, UniProt P53350); prometaphase arrest; HeLa S3; 18 h): 10 µM

Excerpt of the above (block 3):
Cn1nc2c3c(cccc31)C(=O)c1ccccc1-2: 97.6%
CCN(CC)CCNC(=O)c1c(C)[nH]c(/C=C2\C(=O)Nc3ccc(Cl)cc32)c1C: 25.9%
c1ccc(-c2[nH]ncc2-c2ccnc3ccccc23)nc1: 98.1%
CN([C@@H](Cc1ccc(OS(=O)(=O)c2cccc3cnccc23)cc1)C(=O)N1CCN(c2ccccc2)CC1)S(=O)(=O)c1cccc2cnccc12: 99.6%
